{"data": "Measured values of several laboratories", "OPRM1": "Mu-type opioid receptor (OPRM1, Homo sapiens, UniProt P35372)", "SLC22A5": "Organic cation/carnitine transporter 2 (SLC22A5, Homo sapiens, UniProt O76082)", "MAL12": "Alpha-glucosidase MAL12 (MAL12, Saccharomyces cerevisiae S288c, UniProt P53341)", "Tubulin alpha-1B chain/TUBB2B colchicine site": "Tubulin alpha-1B chain/TUBB2B, colchicine site (Bos taurus, UniProt P81947+Q6B856)", "AKR1C3": "Aldo-keto reductase family 1 member C3 (AKR1C3, Homo sapiens, UniProt P42330)", "PARP16": "Protein mono-ADP-ribosyltransferase PARP16 (PARP16, Homo sapiens, UniProt Q8N5Y8)", "note": "Several values in a cell are separate wells, animals, samples, runs or records. Numbers after ± are the reported error.", "chain of UniProt P53341 (whole entry, looked up)": "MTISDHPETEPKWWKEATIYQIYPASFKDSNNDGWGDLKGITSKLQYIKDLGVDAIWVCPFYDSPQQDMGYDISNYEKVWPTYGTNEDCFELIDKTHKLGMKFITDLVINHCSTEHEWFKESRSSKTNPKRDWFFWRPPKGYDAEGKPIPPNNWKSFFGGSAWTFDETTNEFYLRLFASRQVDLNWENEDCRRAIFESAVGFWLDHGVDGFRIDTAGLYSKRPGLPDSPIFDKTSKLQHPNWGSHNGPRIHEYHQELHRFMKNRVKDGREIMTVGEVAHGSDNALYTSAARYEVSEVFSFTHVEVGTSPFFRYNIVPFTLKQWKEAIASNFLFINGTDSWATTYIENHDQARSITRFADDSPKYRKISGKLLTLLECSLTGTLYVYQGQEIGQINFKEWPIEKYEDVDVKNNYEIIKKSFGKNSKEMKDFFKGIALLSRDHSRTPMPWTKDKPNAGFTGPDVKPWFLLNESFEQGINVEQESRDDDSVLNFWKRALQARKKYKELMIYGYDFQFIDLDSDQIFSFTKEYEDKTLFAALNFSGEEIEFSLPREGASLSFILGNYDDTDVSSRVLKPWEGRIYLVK", "chain of UniProt P42330 (whole entry, looked up)": "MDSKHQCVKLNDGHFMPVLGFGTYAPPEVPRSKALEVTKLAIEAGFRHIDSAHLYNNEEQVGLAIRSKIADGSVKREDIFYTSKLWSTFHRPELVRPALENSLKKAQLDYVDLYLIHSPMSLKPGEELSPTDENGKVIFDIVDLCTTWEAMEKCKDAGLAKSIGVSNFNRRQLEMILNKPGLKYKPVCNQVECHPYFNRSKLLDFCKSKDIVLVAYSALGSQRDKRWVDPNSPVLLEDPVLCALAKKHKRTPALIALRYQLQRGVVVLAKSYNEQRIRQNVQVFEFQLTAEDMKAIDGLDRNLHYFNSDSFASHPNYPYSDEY", "chain of UniProt O76082 (whole entry, looked up)": "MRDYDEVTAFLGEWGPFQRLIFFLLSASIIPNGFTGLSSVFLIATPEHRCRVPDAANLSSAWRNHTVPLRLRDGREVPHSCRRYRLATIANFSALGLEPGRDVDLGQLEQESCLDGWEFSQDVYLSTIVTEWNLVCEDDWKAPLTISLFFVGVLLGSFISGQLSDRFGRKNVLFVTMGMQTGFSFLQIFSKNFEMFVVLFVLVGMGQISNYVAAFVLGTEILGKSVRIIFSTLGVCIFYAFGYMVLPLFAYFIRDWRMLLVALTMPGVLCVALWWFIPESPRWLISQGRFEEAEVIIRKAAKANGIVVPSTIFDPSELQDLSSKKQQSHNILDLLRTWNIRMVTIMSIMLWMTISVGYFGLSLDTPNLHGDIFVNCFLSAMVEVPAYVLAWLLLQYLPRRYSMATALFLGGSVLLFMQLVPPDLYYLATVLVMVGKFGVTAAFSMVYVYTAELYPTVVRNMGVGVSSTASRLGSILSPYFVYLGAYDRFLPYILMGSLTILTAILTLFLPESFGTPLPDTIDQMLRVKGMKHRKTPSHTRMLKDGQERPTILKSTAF", "chain of UniProt Q6B856 (whole entry, looked up)": "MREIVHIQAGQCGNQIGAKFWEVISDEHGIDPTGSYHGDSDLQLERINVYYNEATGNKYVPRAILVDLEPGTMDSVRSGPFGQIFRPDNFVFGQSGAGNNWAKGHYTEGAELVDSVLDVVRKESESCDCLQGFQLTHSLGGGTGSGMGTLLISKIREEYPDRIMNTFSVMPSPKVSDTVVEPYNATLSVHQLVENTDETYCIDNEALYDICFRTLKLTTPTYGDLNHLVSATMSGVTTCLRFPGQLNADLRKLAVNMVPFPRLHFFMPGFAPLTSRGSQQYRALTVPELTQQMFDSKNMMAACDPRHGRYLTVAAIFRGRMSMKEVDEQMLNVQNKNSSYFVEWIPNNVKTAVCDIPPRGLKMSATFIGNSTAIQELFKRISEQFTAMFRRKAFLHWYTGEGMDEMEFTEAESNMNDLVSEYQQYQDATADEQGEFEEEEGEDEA", "chain of UniProt P35372 (whole entry, looked up)": "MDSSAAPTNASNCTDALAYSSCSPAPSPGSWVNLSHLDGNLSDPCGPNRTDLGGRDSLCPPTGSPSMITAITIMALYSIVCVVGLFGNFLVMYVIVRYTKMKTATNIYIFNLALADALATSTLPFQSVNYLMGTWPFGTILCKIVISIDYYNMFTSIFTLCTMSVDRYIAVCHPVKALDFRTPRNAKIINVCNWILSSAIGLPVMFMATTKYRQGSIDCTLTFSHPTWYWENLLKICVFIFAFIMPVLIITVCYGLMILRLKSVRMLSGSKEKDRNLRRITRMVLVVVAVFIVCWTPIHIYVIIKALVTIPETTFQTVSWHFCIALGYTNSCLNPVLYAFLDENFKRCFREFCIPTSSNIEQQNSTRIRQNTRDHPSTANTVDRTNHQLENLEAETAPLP", "chain of UniProt Q8N5Y8 (whole entry, looked up)": "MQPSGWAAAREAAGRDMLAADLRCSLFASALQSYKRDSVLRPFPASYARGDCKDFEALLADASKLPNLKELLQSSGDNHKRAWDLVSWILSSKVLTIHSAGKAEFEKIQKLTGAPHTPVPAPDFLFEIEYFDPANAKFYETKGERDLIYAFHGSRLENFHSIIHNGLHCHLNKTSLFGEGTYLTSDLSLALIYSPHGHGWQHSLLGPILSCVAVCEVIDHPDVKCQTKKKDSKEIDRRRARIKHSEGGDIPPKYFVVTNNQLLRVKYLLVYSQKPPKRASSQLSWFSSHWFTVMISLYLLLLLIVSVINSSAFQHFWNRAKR", "chain of UniProt P81947 (whole entry, looked up)": "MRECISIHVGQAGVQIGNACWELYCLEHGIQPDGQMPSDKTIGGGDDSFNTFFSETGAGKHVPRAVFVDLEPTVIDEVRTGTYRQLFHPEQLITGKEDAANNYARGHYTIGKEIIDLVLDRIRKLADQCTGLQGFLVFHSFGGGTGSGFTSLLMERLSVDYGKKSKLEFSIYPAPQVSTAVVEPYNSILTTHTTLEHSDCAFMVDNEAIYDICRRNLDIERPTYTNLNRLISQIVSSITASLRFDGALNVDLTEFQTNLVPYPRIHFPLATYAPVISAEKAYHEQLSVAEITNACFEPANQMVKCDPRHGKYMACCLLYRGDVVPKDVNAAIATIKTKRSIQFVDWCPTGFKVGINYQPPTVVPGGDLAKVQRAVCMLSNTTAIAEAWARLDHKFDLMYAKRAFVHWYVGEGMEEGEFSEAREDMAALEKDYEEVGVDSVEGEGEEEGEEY", "chain of UniProt Q8K424 (whole entry, looked up)": "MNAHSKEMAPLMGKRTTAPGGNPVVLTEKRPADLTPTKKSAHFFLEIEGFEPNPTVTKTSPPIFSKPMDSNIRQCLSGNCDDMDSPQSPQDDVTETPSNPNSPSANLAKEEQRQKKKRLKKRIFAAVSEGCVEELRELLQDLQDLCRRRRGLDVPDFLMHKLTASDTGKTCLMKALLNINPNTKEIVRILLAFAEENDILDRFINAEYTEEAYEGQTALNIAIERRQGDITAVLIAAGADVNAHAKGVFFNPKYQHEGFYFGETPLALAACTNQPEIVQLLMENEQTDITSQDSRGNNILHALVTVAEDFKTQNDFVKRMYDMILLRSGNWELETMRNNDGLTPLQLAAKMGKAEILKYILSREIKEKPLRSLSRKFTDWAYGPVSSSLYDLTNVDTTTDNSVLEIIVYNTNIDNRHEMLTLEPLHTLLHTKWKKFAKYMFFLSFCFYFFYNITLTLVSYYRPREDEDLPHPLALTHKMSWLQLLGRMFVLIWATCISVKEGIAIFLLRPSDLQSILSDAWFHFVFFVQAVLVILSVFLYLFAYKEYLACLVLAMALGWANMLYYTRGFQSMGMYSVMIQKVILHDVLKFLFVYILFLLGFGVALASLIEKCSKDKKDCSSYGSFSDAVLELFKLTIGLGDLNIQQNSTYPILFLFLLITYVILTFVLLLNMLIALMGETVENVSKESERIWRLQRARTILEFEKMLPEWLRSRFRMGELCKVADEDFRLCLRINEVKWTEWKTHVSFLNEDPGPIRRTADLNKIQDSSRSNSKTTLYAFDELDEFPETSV", "chain of UniProt Q92831 (whole entry, looked up)": "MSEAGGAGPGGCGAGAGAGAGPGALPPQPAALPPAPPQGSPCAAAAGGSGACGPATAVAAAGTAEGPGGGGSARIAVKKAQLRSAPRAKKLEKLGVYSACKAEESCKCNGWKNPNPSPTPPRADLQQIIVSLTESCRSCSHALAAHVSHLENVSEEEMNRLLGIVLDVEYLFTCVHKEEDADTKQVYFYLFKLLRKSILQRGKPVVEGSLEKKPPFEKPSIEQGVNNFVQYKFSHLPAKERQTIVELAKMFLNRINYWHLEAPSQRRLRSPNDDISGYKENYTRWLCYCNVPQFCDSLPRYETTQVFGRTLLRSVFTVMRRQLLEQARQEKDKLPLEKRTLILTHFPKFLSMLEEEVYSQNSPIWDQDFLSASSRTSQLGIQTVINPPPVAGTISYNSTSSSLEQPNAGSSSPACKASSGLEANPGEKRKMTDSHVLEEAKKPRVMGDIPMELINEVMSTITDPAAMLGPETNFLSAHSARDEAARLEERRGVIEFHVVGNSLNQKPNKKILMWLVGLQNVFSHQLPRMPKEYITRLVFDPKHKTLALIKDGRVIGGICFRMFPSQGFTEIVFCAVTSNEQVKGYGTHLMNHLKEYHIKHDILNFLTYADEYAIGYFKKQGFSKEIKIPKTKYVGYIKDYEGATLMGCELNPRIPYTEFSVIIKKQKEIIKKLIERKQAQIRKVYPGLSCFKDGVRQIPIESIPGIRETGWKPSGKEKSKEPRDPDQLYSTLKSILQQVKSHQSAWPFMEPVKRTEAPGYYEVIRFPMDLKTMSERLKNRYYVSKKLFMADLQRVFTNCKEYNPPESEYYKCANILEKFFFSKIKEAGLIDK"}
{"SMILES": "CC(C)/C=C/c1c(O)cc(/C=C/c2ccc(O)cc2)cc1O", "target or system": "OPRM1", "assay": "radioligand binding", "setting": "10 µM, 60 min, together with: [3H]DAMGO", "quantity": "inhibition", "result": "-58.3%"}
{"SMILES": "C[N+](C)(C)C[C@@H](O)CC(=O)[O-]", "target or system": "SLC22A5", "assay": "transporter uptake, inhibitor", "setting": "10 µM", "quantity": "inhibition", "result": "36.4%"}
{"SMILES": "CC(C)/C=C/c1c(O)cc(/C=C/c2ccc(O)c(O)c2)cc1O", "target or system": "OPRM1", "assay": "radioligand binding", "setting": "10 µM, 60 min, together with: [3H]DAMGO", "quantity": "inhibition", "result": "-80%"}
{"SMILES": "COc1cc2oc(-c3ccc(O)cc3)cc(=O)c2c(O)c1OC", "target or system": "MAL12", "assay": "enzyme activity, inhibitor, absorbance", "setting": "10 µM", "quantity": "inhibition", "result": "23.4%"}
{"SMILES": "CCOc1ccc(-c2sc(N)nc2-c2cc(OC)c(OC)c(OC)c2)cc1", "target or system": "Tubulin alpha-1B chain/TUBB2B colchicine site", "assay": "[3H]colchicine binding", "setting": "1 5 5 µM", "quantity": "inhibition", "result": "95 ± 0.71%"}
{"SMILES": "CC/C(=C(\\c1ccccc1)c1ccc(OCCN(C)C)cc1)c1ccccc1", "assay": "cytochrome c release, ELISA", "system": "BALB/cByJ female mouse liver mitochondria", "setting": "30 min", "how to read": "relative to: alamethicin maximal release", "quantity": "EC20", "result": "7.7 µM"}
{"SMILES": "CC(C)(C)c1nn(-c2cc(OCc3cn(Cc4ccc(Br)cc4)nn3)c(Cl)cc2Cl)c(=O)o1", "target or system": "Toxoplasma gondii", "assay": "intracellular parasite growth, luminescence", "system": "HFF, wild type, NanoLuc reporter", "setting": "96 h", "quantity": "IC50", "result": "< 2.5 µM and 2.4 µM"}
{"SMILES": "C[C@@]12CC[C@@H]3c4cc(I)c(O)c(Cl)c4CC[C@H]3[C@@H]1CCC2=O", "target or system": "AKR1C3", "assay": "enzyme activity, inhibitor, absorbance", "setting": "10 µM, pH 9", "quantity": "inhibition", "result": "50%"}
{"SMILES": "COc1ccc(-c2cc(=O)c3ccc(O)cc3o2)cc1", "target or system": "MAL12", "assay": "enzyme activity, inhibitor, absorbance", "setting": "250 µM", "quantity": "inhibition", "result": "85.1%"}
{"SMILES": "C[C@@]12CC[C@@H]3c4cc(Cl)c(O)c(I)c4CC[C@H]3[C@@H]1CCC2=O", "target or system": "AKR1C3", "assay": "enzyme activity, inhibitor, absorbance", "setting": "100 µM, pH 9", "quantity": "inhibition", "result": "58%"}
{"SMILES": "Cc1ccc(O)c(C=NNC(=S)NC2CCCCC2)c1", "target or system": "Aldo-keto reductase family 1 member B1 (AKR1B1, Homo sapiens, UniProt P15121)", "assay": "enzyme activity, inhibitor, absorbance", "setting": "100 µM", "quantity": "inhibition", "result": "< 50%"}
{"SMILES": "COc1cc(-c2nc(N)sc2-c2ccc(C)cc2)cc(OC)c1OC", "target or system": "Tubulin alpha-1B chain/TUBB2B colchicine site", "assay": "[3H]colchicine binding", "setting": "1 5 5 µM", "quantity": "inhibition", "result": "88 ± 0.71%"}
{"SMILES": "O=C1CCNC(=O)c2cc(Cl)c(Cl)cc21", "target or system": "PARP16", "assay": "enzyme activity, inhibitor", "setting": "10 µM", "quantity": "inhibition", "result": "0%"}
{"SMILES": "COc1cc2oc(-c3ccccc3)cc(=O)c2c(OC)c1O", "target or system": "MAL12", "assay": "enzyme activity, inhibitor, absorbance", "setting": "50 µM", "quantity": "inhibition", "result": "21.1%"}
{"SMILES": "CCCCCCCCCCCCCCCc1cccc(O)c1C(=O)O", "target or system": "Histone acetyltransferase KAT2B (KAT2B, Homo sapiens, UniProt Q92831)", "assay": "enzyme activity, inhibitor, radiometric", "setting": "200 µM", "quantity": "inhibition", "result": "≤ 35%"}
{"SMILES": "COc1ccc2sc3c(c2c1)-c1c(OC)cccc1C3=O", "target or system": "Dual specificity tyrosine-phosphorylation-regulated kinase 1A (DYRK1A, Homo sapiens, UniProt Q13627)", "assay": "enzyme activity, inhibitor, radiometric", "setting": "1 µM", "quantity": "inhibition", "result": "25 to 32%"}
{"SMILES": "C[C@@]12CC[C@@H]3c4cc(Cl)c(O)c(Br)c4CC[C@H]3[C@@H]1CCC2=O", "target or system": "AKR1C3", "assay": "enzyme activity, inhibitor, absorbance", "setting": "10 µM, pH 9", "quantity": "inhibition", "result": "25%"}
{"SMILES": "NNC(=O)c1ccncc1", "assay": "cytochrome c release, ELISA", "system": "BALB/cByJ female mouse liver mitochondria", "setting": "30 min", "how to read": "relative to: alamethicin maximal release", "quantity": "EC20", "result": "> 400 µM"}
{"SMILES": "C[C@@]12CC[C@@H]3c4cc(I)c(O)c(Br)c4CC[C@H]3[C@@H]1CCC2=O", "target or system": "AKR1C3", "assay": "enzyme activity, inhibitor, absorbance", "setting": "100 µM, pH 9", "quantity": "inhibition", "result": "43.6%"}
{"SMILES": "O=C(CSc1nnc(NCc2ccccc2)s1)NCC1CCCCC1", "target or system": "mouse hippocampal CA1 neurons", "assay": "NMDA receptor EPSC", "setting": "3 µM, holding +40 mV", "how to read": "relative to: baseline", "quantity": "inhibition", "result": "16 ± 3%"}
{"SMILES": "COc1c(-c2ccc(O)cc2)oc2c(OC)c(O)cc(O)c2c1=O", "target or system": "MAL12", "assay": "enzyme activity, inhibitor, absorbance", "setting": "2.5 µM", "quantity": "inhibition", "result": "40.1%"}
{"SMILES": "Cn1c(-c2ccc(C(N)=O)cc2F)nnc1C(C)(C)Oc1c(F)cc(Cl)cc1F", "system": "young non-Japanese healthy subjects, plasma", "setting": "oral, 0.2 mg once daily, 3 mg loading day 1, mean, last dosing day", "quantity": "Ctrough", "result": "0.552 ng/mL"}
{"SMILES": "CC[N+](CC)(CC)CC", "target or system": "Kcnma1 (Mus musculus, UniProt Q08460)", "assay": "channel current, open channel blocker, inside-out patch clamp", "system": "cytosolic side", "setting": "pH 8.5, together with: 300 µM Ca2+", "quantity": "Kb", "result": "49000 ± 3200 µM"}
{"SMILES": "CNCc1ccc(-c2[nH]c3cc(F)cc4c3c2CCNC4=O)cc1", "system": "human, fasted, plasma", "setting": "oral, 600 mg, 24 h, single dose, median", "quantity": "AUC(0-t)", "result": "7050 ng·h/mL"}
{"SMILES": "C[C@@]12CC[C@@H]3c4cc(Br)c(O)c(I)c4CC[C@H]3[C@@H]1CCC2=O", "target or system": "AKR1C3", "assay": "enzyme activity, inhibitor, absorbance", "setting": "100 µM, pH 9", "quantity": "inhibition", "result": "88.9%"}
{"SMILES": "CC[C@]1(O)C[C@H]2CN(CCc3c([nH]c4ccccc34)[C@@](C(=O)OC)(c3cc4c(cc3OC)N(C=O)[C@H]3[C@@](O)(C(=O)OC)[C@H](OC(C)=O)[C@]5(CC)C=CCN6CC[C@]43[C@@H]65)C2)C1", "target or system": "SLC22A5", "assay": "transporter uptake, inhibitor", "setting": "100 µM", "quantity": "inhibition", "result": "75%"}
{"SMILES": "C[C@@]12CC[C@@H]3c4cc(Br)c(O)c(Cl)c4CC[C@H]3[C@@H]1CCC2=O", "target or system": "AKR1C3", "assay": "enzyme activity, inhibitor, absorbance", "setting": "10 µM, pH 9", "quantity": "inhibition", "result": "50%"}
{"SMILES": "NC(=O)c1ccc[n+]([C@@H]2O[C@H](COP(=O)(O)OP(=O)(O)OC[C@H]3O[C@@H](n4cnc5c(N)ncnc54)[C@H](O)[C@@H]3O)[C@@H](O)[C@H]2O)c1", "assay": "cofactor, NADH absorbance", "setting": "pH 9.0", "quantity": "Km", "result": "313 ± 38 µM"}
{"SMILES": "COc1cc(-c2cc(=O)c3ccc(O)c(OC)c3o2)cc(O)c1OC", "target or system": "MAL12", "assay": "enzyme activity, inhibitor", "setting": "250 µM", "quantity": "inhibition", "result": "> 99%"}
{"SMILES": "O=C1CCCc2ccccc2N1", "target or system": "PARP16", "assay": "enzyme activity, inhibitor", "setting": "10 µM", "quantity": "inhibition", "result": "95%"}
{"SMILES": "COc1ccc(-c2cc(=O)c3c(O)cc(OC)cc3o2)cc1", "target or system": "MAL12", "assay": "enzyme activity, inhibitor", "setting": "25 µM, together with: p-nitrophenyl-α-D-glucopyranoside", "quantity": "inhibition", "result": "< 1%"}
{"SMILES": "CC(C)(C)c1nn(-c2cc(OCc3cn(Cc4cccc(Br)c4)nn3)c(Cl)cc2Cl)c(=O)o1", "target or system": "Toxoplasma gondii", "assay": "intracellular parasite growth, luminescence", "system": "HFF, wild type, NanoLuc reporter", "setting": "96 h", "quantity": "IC50", "result": "< 2.5 µM and 1.3 µM"}
{"SMILES": "O=C(O)c1ccccc1Nc1cccc(C(F)(F)F)c1", "target or system": "Transient receptor potential cation channel subfamily V member 3 (Trpv3, Mus musculus, UniProt Q8K424)", "assay": "ion current, two-electrode voltage clamp", "system": "Xenopus oocytes", "setting": "100 µM, -100 mV, together with: 2-APB 100 µM", "quantity": "inhibition", "result": "67%"}
{"SMILES": "COc1c(O)ccc2c(=O)cc(-c3ccccc3)oc12", "target or system": "MAL12", "assay": "enzyme activity, inhibitor, absorbance", "setting": "100 µM", "quantity": "inhibition", "result": "89.3%"}
